Literature values that unrelated publications cite.
Protocols differ between the studies behind these lines. Numbers after ± are the reported error.

| SMILES | test system | setting | how to read | Cmax |
| --- | --- | --- | --- | --- |
| CCOc1ccc(Cc2cc([C@@H]3O[C@H](SC)[C@@H](O)[C@H](O)[C@H]3O)ccc2Cl)cc1 | healthy human subjects | oral, up to 500 mg once daily, multiple doses, day 7, liquid formulation | – | 165 ng/mL |
| CC(C)(C)NCC(O)COc1cccc2c1CC(O)C(O)C2 (stereo not drawn) | human, plasma | concentration not given, total concentration | – | 430 nM |
| CC(=O)c1c(C)c2cnc(Nc3ccc(N4CCNCC4)cn3)nc2n(C2CCCC2)c1=O | human patients, plasma | oral, 125 mg once daily, steady state, fasted, geometric mean | – | 94.9 ng/mL |
| N#CC[C@H](C1CCCC1)n1cc(-c2ncnc3[nH]ccc23)cn1 | human, plasma | dose not given | – | 1510 nM |
| NC(=O)N1c2ccccc2CC(=O)c2ccccc21 | human, plasma | 1200 mg eslicarbazepine acetate once daily | – | 1000 nM |
| CC(C)(C)NC(=O)[C@H]1CC[C@H]2[C@@H]3CC[C@H]4NC(=O)C=C[C@]4(C)[C@H]3CC[C@]12C | human, plasma | concentration not given, total concentration | – | 220 nM |
| COc1cccc2c1C(=O)c1c(O)c3c(c(O)c1C2=O)C[C@@](O)(C(=O)CO)C[C@@H]3O[C@H]1C[C@H](N)[C@H](O)[C@H](C)O1 | human, normal weight, plasma | intravenous infusion, 60 mg/m^2, 40 min infusion | – | 1000 nM |
| O=C(/C=C/c1cccc(S(=O)(=O)Nc2ccccc2)c1)NO | human, plasma | intravenous infusion, 600 to 1400 mg/m2, 30 min infusion | – | 88100 to 183000 nM |
| CCN1C(=O)N(c2c(F)c(OC)cc(OC)c2F)Cc2cnc3[nH]c(CN4CCOCC4)cc3c21 | healthy human volunteers | oral, 4.5 mg single dose, geometric mean | – | 55.2 nM |
| O=C(NCC1CCCCN1)c1cc(OCC(F)(F)F)ccc1OCC(F)(F)F (stereo not drawn) | human, plasma | concentration not given, total concentration | – | 930 nM |
| CN(CCOc1ccc(CC2SC(=O)NC2=O)cc1)c1ccccn1 (stereo not drawn) | human, plasma | oral, 8 mg single dose | – | 1500 nM |
| COc1cc2nc(N(C)CCCNC(=O)C3CCCO3)nc(N)c2cc1OC (stereo not drawn) | human, plasma | concentration not given, total concentration | – | 32 nM |
| Cc1cc(-c2ccc(C(=O)[C@@H]3CCCC[C@H]3C(=O)Nc3cnn4c3C(=O)NCC4)cc2)n[nH]1 | human, non-Japanese | oral, 180 mg multiple doses, day 10, geometric mean | – | 1240 nM |
| O=C(CCCCCCC(=O)Nc1ccccc1)NO | human | oral, 400 mg/day | – | 1000 to 1500 nM |
| CC(C)C[C@H](NC(=O)[C@H](Cc1ccccc1)NC(=O)c1cnccn1)B(O)O | human, plasma | concentration not given, total concentration | – | 1300 nM |
| C#Cc1cccc(Nc2ncnc3cc(OCCOC)c(OCCOC)cc23)c1 | human | oral, 150 mg once daily, day 1 | – | 872 ± 399 ng/mL |
| CC(C)NCC1CCc2cc(CO)c([N+](=O)[O-])cc2N1 (stereo not drawn) | healthy human | oral, 1000 mg | – | 7100 ± 1000 nM |
| CCOC(=O)C1=C[C@@H](OC(CC)CC)[C@H](NC(C)=O)[C@@H](N)C1 | human adult, plasma | 75 mg twice daily, 5 days, steady state | – | 186 nM |

| SMILES | test system | setting | how to read | Cmax |
| --- | --- | --- | --- | --- |
| O=C(CCCN1CC=C(n2c(=O)[nH]c3ccccc32)CC1)c1ccc(F)cc1 | human, plasma | concentration not given, highest clinical total | – | 4100 nM |
| Cn1cncc1[C@@](N)(c1ccc(Cl)cc1)c1ccc2c(c1)c(-c1cccc(Cl)c1)cc(=O)n2C | human patients without enzyme-inducing antiepileptics | oral, 300 mg twice daily, day 1 | – | 634 ± 374 ng/mL |
| O=C(c1cc(Cc2n[nH]c(=O)c3ccccc23)ccc1F)N1CCN(C(=O)C2CC2)CC1 | human | oral, 400 mg twice daily, multiple dose, pooled trials | – | 6250 ng/mL |
| O=C(CCCN1CCC(O)(c2ccc(Cl)cc2)CC1)c1ccc(F)cc1 | human, plasma | concentration not given, highest clinical total | – | 106 nM |
| CCCS(=O)(=O)Nc1ccc(F)c(C(=O)c2c[nH]c3ncc(-c4ccc(Cl)cc4)cc23)c1F | human, plasma | 960 mg, highest approved dose | – | 125000 nM |
| COc1c2occc2cc2ccc(=O)oc12 | human, plasma | concentration not given, total concentration | – | 1500 nM |
| O=C(O)Cc1ccccc1Nc1c(Cl)cccc1Cl | human, plasma | oral, 50 mg | – | 4000 nM |
| C[C@@H]1C[C@H]2[C@@H]3CCC4=CC(=O)C=C[C@]4(C)[C@@]3(F)[C@@H](O)C[C@]2(C)[C@@]1(O)C(=O)CO | human, plasma | concentration not given, total concentration | – | 160 nM |
| Cc1ccc(/C=C2/C(=O)C3(C)CCC2C3(C)C)cc1 (stereo not drawn) | human, female, plasma | dermal, 22 mg/kg, sunscreen 4% compound | geometric mean | 25.5 ng/mL |
| CC(C)(C)c1ccc(C(O)CCCN2CCC(C(O)(c3ccccc3)c3ccccc3)CC2)cc1 (stereo not drawn) | human, plasma | concentration not given, highest clinical total | – | 120 nM |
| COc1cccc(CCc2ccccc2OCC(CN(C)C)OC(=O)CCC(=O)O)c1 (racemic) | human | 100 mg single dose, highest mean clinical value | – | 1700 nM |
| C[C@H]1Oc2cc(cnc2N)-c2c(nn(C)c2C#N)CN(C)C(=O)c2ccc(F)cc21 | human patients, plasma | dose not given | – | 1470 nM |
| C/C=C1\NC(=O)[C@H]2CSSCC/C=C/[C@H](CC(=O)N[C@H](C(C)C)C(=O)N2)OC(=O)[C@H](C(C)C)NC1=O | human, plasma | intravenous infusion, 1 to 24.9 mg/m2, 4 h infusion | – | 70 to 1020 nM |
| C[C@@H]1CN(c2c(F)c(N)c3c(=O)c(C(=O)O)cn(C4CC4)c3c2F)C[C@H](C)N1 | human, plasma | concentration not given, highest clinical total | – | 9680 nM |
| CC1=C(/C=C/C(C)=C/C=C/C(C)=C/C(=O)O)C(C)(C)CCC1 | human, plasma | concentration not given, maximum therapeutic | – | 1310 nM |
| CC(C)NCC(O)COc1cccc2ccccc12 (stereo not drawn) | human, plasma | concentration not given, highest clinical total | – | 220 nM |
| C[C@@H](Oc1cc(-c2cnn(C3CCNCC3)c2)cnc1N)c1c(Cl)ccc(F)c1Cl | human, plasma | concentration not given, total concentration | – | 220 nM |
| CN1CCN(c2ccc3nc(-c4c(N)c5c(F)cccc5[nH]c4=O)[nH]c3c2)CC1 | human | oral, 500 mg once daily, day 1 | – | 223 ± 128 ng/mL |

Repeated from above:
| SMILES | test system | setting | how to read | Cmax |
| --- | --- | --- | --- | --- |
| CCOC(=O)C1=C[C@@H](OC(CC)CC)[C@H](NC(C)=O)[C@@H](N)C1 | human adult, plasma | 75 mg twice daily, 5 days, steady state | – | 186 nM |
| O=C(c1cc(Cc2n[nH]c(=O)c3ccccc23)ccc1F)N1CCN(C(=O)C2CC2)CC1 | human | oral, 400 mg twice daily, multiple dose, pooled trials | – | 6250 ng/mL |
| CCCS(=O)(=O)Nc1ccc(F)c(C(=O)c2c[nH]c3ncc(-c4ccc(Cl)cc4)cc23)c1F | human, plasma | 960 mg, highest approved dose | – | 125000 nM |
| O=C(CCCN1CC=C(n2c(=O)[nH]c3ccccc32)CC1)c1ccc(F)cc1 | human, plasma | concentration not given, highest clinical total | – | 4100 nM |
